Values quoted from earlier work that unrelated publications cite.
Lines come from different studies, so protocols differ. Several values in a cell are separate wells, animals, samples, runs or records. Numbers after ± are the reported error.

SMILES	target	assay	test system	conditions	how to read	quantity	value
Cc1nc(Nc2ncc(C(=O)Nc3c(C)cccc3Cl)s2)cc(N2CCN(C(=O)CCCCCCC(=O)N[C@H](C(=O)N3C[C@H](O)C[C@H]3C(=O)NCc3ccc(-c4scnc4C)cc3)C(C)(C)C)CC2)n1	Bcr-Abl T315I			concentration not given		activity	inactive
Nc1ncnc2c1ncn2C1OC(COP(=O)(O)OP(=O)(O)OCC2OC(O)C(O)C2O)C(O)C1O (stereo not shown)	TRPM2 (human)	channel activation, agonist, inside-out patch clamp		added: saturating cytosolic Ca2+		EC50	1.4 µM
CC(C)C(=O)Nc1c(NC[C@H](O)[C@H](O)[C@H](O)CO)[nH]c(=O)[nH]c1=O	Bacillus subtilis lumazine synthase	enzyme kinetics	recombinant β60 capsid	pH 7.0, added: substrate 2 fixed, 1 varied		kcat	0.00667 ± 0.000167 s⁻¹
Nc1n[nH]c2c1c(Nc1ccc(F)cc1)nc1ccccc12	intestinal beta-glucuronidase		BALB/cJ mouse	oral, dose not given, 5 consecutive days		inhibition	75%
O=C(NCc1ccc(Br)cc1)N1CCN(Cc2cc(F)cc(F)c2)CC1	bacterial ClpP	activity class		concentration not given		activity	inactive
C[C@@H]1O[C@@H](Oc2c(-c3ccc(O)c(O)c3)oc3cc(O)cc(O)c3c2=O)[C@H](O)[C@H](O)[C@H]1O	Hedgehog/GLI1 pathway	inhibitor		concentration not given		activity	inactive
CSc1nn(CC(=O)Nc2ccc(F)c(F)c2)c(N)c1-c1nc(-c2ccc3c(c2)OCO3)no1	FANCM/RMI	PubChem screen		concentration not given		activity	inactive
C=CCC(=N)NCCC[C@H](N)C(=O)O	rat nNOS			100 µM		inhibition	94%
N[C@@H](Cc1ccc(O)c(Cl)c1)C(=O)O	iodotyrosine deiodinase	substrate				dechlorination yield	~94%
O=c1[nH]c(NC[C@H](O)[C@H](O)[C@H](O)CO)c([N+](=O)[O-])c(=O)[nH]1	Bacillus subtilis lumazine synthase		recombinant β60 capsid	pH 7.0, Tris·HCl buffer, added: 2 constant, 1 varied		Ks	12 ± 2 µM
O=C(Nc1c(-c2ccccc2)cnn1-c1ccccc1)c1ccc([N+](=O)[O-])cc1	rat mGlu1 receptor	positive allosteric modulator				EC50	2.4 µM
CCCCCCCCCCCC(=O)N[C@H](CO)C[C@@H](O)c1ccccc1	START domain	binding				EC50	4.1 µM
CS(=O)(=O)c1ccc(-c2nc3ccccn3c2CN2CCOCC2)cc1	cyclooxygenase-2				baseline: COX-1 IC50 over COX-2 IC50	selectivity ratio	217
CCOC(=O)N1CCC(c2cc(O)n3nc(C)c(-c4ccc(C(F)(F)F)cc4)c3n2)CC1	TRPC3	ion channel activity, agonist				EC50	~0.019 µM and 0.019 µM
COCn1ccc(NCCNCCCOc2ccc3c(NCCCc4ccccc4)ncnc3c2)nc1=O	human DNMT3A catalytic domain	enzyme activity		32 µM		inhibition	0%
Nc1c2ncn3c2nc[n+]1[C@@H]1O[C@H](COP(=O)(O)OP(=O)([O-])OC[C@H]2O[C@@H]3[C@H](O)[C@@H]2OP(=O)(O)O)[C@@H](O)[C@H]1O	cADPR receptor		permeabilised Jurkat T cells	concentration not given		activity	inactive

SMILES	target	assay	test system	conditions	how to read	quantity	value
CC(=O)N1CCC(NC(=O)Nc2ccc(OC(F)(F)F)cc2)CC1	soluble epoxide hydrolase (mouse)	binding, in vitro				residence time	6 min
Nc1c(SC[C@H](O)[C@H](O)[C@H](O)CO)[nH]c(=O)[nH]c1=O	Bacillus subtilis lumazine synthase	enzyme kinetics	recombinant β60 capsid	pH 7.0, added: substrate 2 fixed, 1 varied		kcat	0.0183 ± 0.00167 s⁻¹
Nc1c2ncn3c2nc[n+]1[C@@H]1O[C@H](COP(=O)(O)OP(=O)([O-])OC[C@@H]2C[C@@H](O)[C@H]3O2)[C@@H](O)[C@H]1O	cADPR receptor		permeabilised Jurkat T cells	concentration not given		activity	inactive
Cc1cccc(Cn2ncc3c4cc(F)c(CN(C)C)cc4n(C)c3c2=O)n1	human recombinant PKM2	enzyme activity, activator		concentration not given		activation	> 200%
CC(=O)N[C@H]1[C@@H](O)[C@H](O)[C@@H](CO)O[C@H]1O	Staphylococcus aureus NanK					Vmax	20.5 ± 0.18 µM min^–1
CCOC(=O)C(=O)Nc1c(NC[C@H](O)[C@H](O)[C@H](O)CO)[nH]c(=O)[nH]c1=O	Bacillus subtilis lumazine synthase	enzyme kinetics	recombinant β60 capsid	pH 7.0, added: substrate 2 fixed, 1 varied		kcat	0.0417 ± 0.00167 s⁻¹
CN(C(=O)c1ccccc1)c1ccc(C(O)(C(F)(F)F)C(F)(F)F)cc1	LXRα	agonist				EC50	0.4 µM
C[C@H](NC(=O)[C@@H]1CCCN1C(=O)[C@@H]1CCCN1C(=O)[C@H](C)NC(=O)[C@@H](NC(=O)[C@H](CO)NC(=O)CNC(=O)[C@@H]1CCCN1C(=O)[C@H](C)NC(=O)[C@@H]1CCCN1C(=O)[C@@H](N)CCCNC(=N)N)[C@@H](C)O)C(=O)N[C@@H](Cc1c[nH]cn1)C(=O)NCC(=O)O	16 A monoclonal antibody	SPR				kon	7210 M⁻¹ s⁻¹
CNC(=O)c1ccccc1Oc1nc(Nc2cc(OC)c(OC)c(OC)c2)ncc1Br	AMPK			0.25 µM		inhibition	~80%
O=c1[nH]c(SC[C@H](O)[C@H](O)[C@H](O)CO)c([N+](=O)[O-])c(=O)[nH]1	Bacillus subtilis lumazine synthase		recombinant β60 capsid	pH 7.0, Tris·HCl buffer, added: 2 constant, 1 varied		Ks	21 ± 3 µM
O=C(N1CCC(C(c2ccc3c(c2)OCO3)c2ccc3c(c2)OCO3)CC1)n1cncn1 [carbon-11 labelled]	MAGL		rat, brain	concentration not given		blockade	~50%
CCCCCCCCCCCCCC(=O)N[C@@H](CO)C(=O)N[C@H](C(=O)N[C@@H](Cc1ccc(O)cc1)C(=O)N[C@@H](CCCNC(=N)N)C(=O)N[C@@H](CCCNC(=N)N)C(=O)NCC(=O)N[C@@H](C)C(=O)N[C@@H](CCCNC(=N)N)C(=O)N[C@@H](CCCNC(=N)N)C(=O)N[C@@H](Cc1c[nH]c2ccccc12)C(=O)N[C@@H](CCCNC(=N)N)C(=O)N[C@@H](CCCCN)C(=O)N[C@@H](CC(C)C)C(=O)O)[C@@H](C)CC	PKMζ	AMPAR responses	CA1 neurons, hippocampal slices			lowest dose blocking PKMζ potentiation	~5 µM
COC(=O)[C@H](CC(C)C)NC(=O)[C@@H]1CCCN1C(=O)[C@@H](NC(=O)[C@H](CCC(=O)C=[N+]=[N-])NC(=O)OCc1ccccc1)C(C)C	guinea pig transglutaminase 2			50 µM, 30 min		inhibition	95%
COc1cc(F)c(C(C)C)cc1C1=C(CN2C(=O)O[C@H](c3cc(C(F)(F)F)cc(C(F)(F)F)c3)[C@@H]2C)CC(C)(C)CC1	CETP		dyslipidemic hamster	0.1 to 30 mg/kg, single dose		duration of CETP inhibition	48 h
Cc1cccc(C)c1NC(=O)C1CCN(Cc2ccccc2)C1 (stereo not shown)	sodium channel (human)	channel block			baseline: compound over tocainide	potency ratio	10
